# Assay results gathered from unrelated publications.
# A part holds a random share of what one study measured. Substitutions count along the parent as printed.
# Chain of UniProt P54762 (whole entry, looked up): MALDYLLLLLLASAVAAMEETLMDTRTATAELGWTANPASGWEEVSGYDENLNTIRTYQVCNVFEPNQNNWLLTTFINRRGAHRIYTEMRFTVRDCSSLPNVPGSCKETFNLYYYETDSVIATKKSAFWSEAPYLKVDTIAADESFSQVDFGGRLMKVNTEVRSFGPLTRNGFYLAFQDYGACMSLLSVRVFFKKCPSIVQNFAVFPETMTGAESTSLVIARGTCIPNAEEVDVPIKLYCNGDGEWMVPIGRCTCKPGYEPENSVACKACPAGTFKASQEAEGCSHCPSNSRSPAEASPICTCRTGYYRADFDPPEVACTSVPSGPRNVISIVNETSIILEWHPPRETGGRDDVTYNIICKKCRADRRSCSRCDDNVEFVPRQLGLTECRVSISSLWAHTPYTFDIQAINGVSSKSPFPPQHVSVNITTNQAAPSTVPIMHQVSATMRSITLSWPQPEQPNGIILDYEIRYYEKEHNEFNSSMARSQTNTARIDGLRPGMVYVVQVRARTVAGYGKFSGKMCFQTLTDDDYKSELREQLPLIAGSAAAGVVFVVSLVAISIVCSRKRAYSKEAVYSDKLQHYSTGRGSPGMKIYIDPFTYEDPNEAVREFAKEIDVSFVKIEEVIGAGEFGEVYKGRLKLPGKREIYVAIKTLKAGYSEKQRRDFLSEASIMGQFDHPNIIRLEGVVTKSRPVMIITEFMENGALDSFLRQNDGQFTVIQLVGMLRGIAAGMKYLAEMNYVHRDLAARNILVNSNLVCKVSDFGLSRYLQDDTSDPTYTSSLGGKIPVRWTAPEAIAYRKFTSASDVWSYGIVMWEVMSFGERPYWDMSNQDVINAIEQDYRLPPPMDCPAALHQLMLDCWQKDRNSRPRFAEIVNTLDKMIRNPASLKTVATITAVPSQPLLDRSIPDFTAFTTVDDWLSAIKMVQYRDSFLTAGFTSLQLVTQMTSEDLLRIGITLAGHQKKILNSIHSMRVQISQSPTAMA

# Sample 1
# Target: ABI1, truncated, D143A, DHFR fusion (Arabidopsis thaliana)
# Technique: DHFR PCA, deep sequencing
# Matrix: yeast
# Setting: methotrexate growth selection, single substitutions
# Added: (+)-ABA 0.032 µM
# Relative to: wild-type fitted maximum
# Reading: higher = stronger binding
# Starting sequence: PYL1, truncated, DHFR fusion (Arabidopsis thaliana); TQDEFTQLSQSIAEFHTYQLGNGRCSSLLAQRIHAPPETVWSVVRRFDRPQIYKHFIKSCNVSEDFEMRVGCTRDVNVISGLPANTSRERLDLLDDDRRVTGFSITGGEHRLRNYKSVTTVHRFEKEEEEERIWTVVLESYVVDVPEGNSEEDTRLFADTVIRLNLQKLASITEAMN; partner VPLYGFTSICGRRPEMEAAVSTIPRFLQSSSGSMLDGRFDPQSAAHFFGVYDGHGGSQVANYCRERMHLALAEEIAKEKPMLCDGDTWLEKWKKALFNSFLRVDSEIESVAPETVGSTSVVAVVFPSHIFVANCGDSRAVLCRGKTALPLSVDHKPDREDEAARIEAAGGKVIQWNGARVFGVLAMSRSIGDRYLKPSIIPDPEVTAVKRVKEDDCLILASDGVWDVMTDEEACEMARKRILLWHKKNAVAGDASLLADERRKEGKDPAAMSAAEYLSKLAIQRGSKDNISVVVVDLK
Substitution,relative binding score
T86K,9.88%
A35G,-0.962%
L164E,2.2%
R24T,20.7%
I52Y,4.87%
T39F,-3.39%
R99D,0.637%
R155P,-0.655%

# Sample 2
# Target: CCNE2, cyclin fold, Cln2 fusion (human)
# Technique: yeast growth competition, sequencing
# Matrix: yeast
# Setting: strong parent motif
# Relative to: not given
# Reading: higher = stronger binding
# Starting sequence: GMNC docking peptide (human); KNAKRNLSSEFAN; partner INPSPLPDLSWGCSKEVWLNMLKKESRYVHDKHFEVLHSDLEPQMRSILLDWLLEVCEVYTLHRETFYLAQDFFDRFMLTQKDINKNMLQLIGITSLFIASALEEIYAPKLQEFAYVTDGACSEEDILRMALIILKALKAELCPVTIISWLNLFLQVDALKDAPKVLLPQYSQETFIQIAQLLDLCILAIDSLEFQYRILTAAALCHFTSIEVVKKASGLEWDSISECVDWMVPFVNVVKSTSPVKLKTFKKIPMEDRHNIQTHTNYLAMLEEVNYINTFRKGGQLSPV
Substitution,normalised enrichment score
KNAKRYLSSEFAN [N6Y],-0.379
KIAKRNLSSEFAN [N2I],0.834
KNAKRNLSSEFLN [A12L],1.07
KNAKRDLSSEFAN [N6D],0.643
KNAKRNLSSEFMN [A12M],1.42
KRAKRNLSSEFAN [N2R],1.59
KNAKRNGSSEFAN [L7G],0.652
KNAKRNLSSEFSN [A12S],1.16

# Sample 3
# Target: Interferon regulatory factor 7, full length, phosphomimetic (IRF7, Homo sapiens, UniProt Q92985, residues 1-503, S101K/S471D/S472D/S475D/S476D/S477D/S483D/S484D/S487D)
# Technique: protein-binding microarray
# Molecule type: double-stranded DNA, one strand shown
# Matrix: in vitro
# Concentration: 250 nM
# Setting: 60-bp whole probe
# Added: salmon DNA 0.4 mg/ml
# Relative to: random background probes
# Reading: higher = stronger binding
# Constant ends, left off below: GCCTAGCAC … GTCTTGATTCGCTTGACGCTGCTG
# Construct (chain): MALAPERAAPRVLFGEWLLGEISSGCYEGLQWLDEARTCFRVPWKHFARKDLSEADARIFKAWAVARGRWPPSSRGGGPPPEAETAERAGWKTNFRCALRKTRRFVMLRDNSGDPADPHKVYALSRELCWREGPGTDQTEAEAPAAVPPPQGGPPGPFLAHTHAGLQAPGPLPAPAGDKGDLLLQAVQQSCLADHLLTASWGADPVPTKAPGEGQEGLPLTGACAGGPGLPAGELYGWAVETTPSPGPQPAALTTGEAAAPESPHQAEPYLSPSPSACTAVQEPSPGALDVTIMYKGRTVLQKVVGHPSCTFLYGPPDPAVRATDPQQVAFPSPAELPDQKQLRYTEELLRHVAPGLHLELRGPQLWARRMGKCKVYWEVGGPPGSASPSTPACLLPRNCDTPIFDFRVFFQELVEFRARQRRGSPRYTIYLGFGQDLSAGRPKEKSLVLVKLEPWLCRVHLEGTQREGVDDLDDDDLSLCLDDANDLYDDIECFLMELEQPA
Strand,log fluorescence [z-score]
TTAGGTCTCCTTCTCCTTTGGTGCTAG,0.518
ATATGTAAGATATCCATATGGTGCTAG,0.128
CCTAATCTCAGCCTCCGTCAGTGCTAG,0.221
GGCCAAACAGTATTAAACTCGTGCTAG,-0.423
GACGGGCTCGGACTGGGGACGTGCTAG,-0.412
TCATTTCCCACTTTCAGACTGTGCTAG,5.14
TAAGGACTGGACTATCGGTTAGTGCTA,0.013
GACGATATCAGACTGGAGATGTGCTAG,-0.221

# Other studies, line by line
Compound,target,read-out,action,concentration,relative to,endpoint,value
COc1ccc(COc2ccc(Cc3cnc(N)nc3N)cc2OC)cc1,"Ephrin type-B receptor 1 (EPHB1, Homo sapiens, UniProt P54762)",enzyme activity,inhibitor,0.5 µM,control,remaining activity,103%
